Experimental data collected from several papers.
Each numbered part is a random draw from the data of one study; scales do not carry over between parts.

Set 1
Target: Sal-like protein 4, full length isoform B (SALL4, Homo sapiens, UniProt Q9UJQ4-2, residues 1-616)
Technique: universal PBM
Molecule type: double-stranded DNA, one strand shown
Sample: in vitro
Concentration: not given
Setting: 8-mer, flanks averaged, mean of replicates
Reading: higher = stronger binding
Residues (chain): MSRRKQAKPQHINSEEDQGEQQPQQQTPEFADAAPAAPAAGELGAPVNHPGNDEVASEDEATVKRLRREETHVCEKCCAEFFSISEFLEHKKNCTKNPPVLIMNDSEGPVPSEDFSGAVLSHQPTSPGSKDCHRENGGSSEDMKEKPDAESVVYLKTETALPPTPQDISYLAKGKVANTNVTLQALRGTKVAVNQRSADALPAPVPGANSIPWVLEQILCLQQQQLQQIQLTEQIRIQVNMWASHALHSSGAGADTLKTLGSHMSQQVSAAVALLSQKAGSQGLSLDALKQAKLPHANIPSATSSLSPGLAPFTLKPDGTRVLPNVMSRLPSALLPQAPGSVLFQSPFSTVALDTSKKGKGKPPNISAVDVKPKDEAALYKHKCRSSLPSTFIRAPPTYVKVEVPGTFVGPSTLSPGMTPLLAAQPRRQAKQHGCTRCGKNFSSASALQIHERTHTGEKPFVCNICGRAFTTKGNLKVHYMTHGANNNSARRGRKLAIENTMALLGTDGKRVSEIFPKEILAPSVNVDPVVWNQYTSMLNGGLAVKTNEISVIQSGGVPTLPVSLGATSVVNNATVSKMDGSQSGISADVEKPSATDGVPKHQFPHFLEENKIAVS
Strand	E-score
GATCCAAC	-0.0481
CAGTAAAC	0.146
ACTTCCAT	-0.0192
CTATGGCA	0.121
AATGTCCG	-0.0405
AACCGTGG	-0.203
CTTATTAA	0.378
GGATGGAC	-0.0935
CAATAGGC	0.0315
ACTTACTG	0.068
ACACGAAG	-0.0391
GCGCGGTA	-0.219
CCAACCCA	-0.0941
CTAGCCGC	-0.317
AAGTTACA	0.11
ATCCCTAA	-0.0553
AATGTCCC	-0.051
GCGACCCA	-0.304
CATTGGGG	-0.0884
ATAGTTCC	0.0545
GTGTAGCA	-0.0707
GCTAGACA	0.0886
CCCGTCCC	-0.347
GTAACCGA	-0.0742

Set 2
Target: RING finger protein unkempt homolog, zinc fingers 1-6, GST-SBP tag (UNK, Homo sapiens, UniProt Q9C0B0, residues 30-357)
UniProt Q9C0B0, sequence (30-357, looked up): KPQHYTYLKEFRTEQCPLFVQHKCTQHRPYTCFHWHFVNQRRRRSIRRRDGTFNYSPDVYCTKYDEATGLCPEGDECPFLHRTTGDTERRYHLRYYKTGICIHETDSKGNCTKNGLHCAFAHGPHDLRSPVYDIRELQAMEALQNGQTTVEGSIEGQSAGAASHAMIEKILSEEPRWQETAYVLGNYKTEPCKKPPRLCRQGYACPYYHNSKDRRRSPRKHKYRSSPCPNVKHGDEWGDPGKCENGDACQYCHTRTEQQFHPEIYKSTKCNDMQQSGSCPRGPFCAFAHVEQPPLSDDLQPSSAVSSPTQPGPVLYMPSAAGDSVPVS
Technique: RNA Bind-n-Seq
Molecule type: RNA
Sample: in vitro
Concentration: not given
Setting: RNA with constant flanks, human and mouse sites, ends assumed
Baseline: input RNA pool
Reading: higher = stronger binding
Strand	bound/input enrichment [ratio]
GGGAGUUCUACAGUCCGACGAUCUUGAAAGGUAAUGGGAGCCCAGUCAAUGGGAGUUCUCAGCAGGGAACCUCAAAUCCUUCCCUAGGUUCAACUAUUCCAAGUCUUCAGAAUUCAUUAAAUGGAUCUUCUGCUGGCAGAAAGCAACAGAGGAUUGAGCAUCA	0.289
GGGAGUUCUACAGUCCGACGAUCAUAAGUUAUAAUUUCUGUUCACUUUGUAUUUGUUCAGUAUGCAAAGUGUGUCACCCUUUCUAGCUGAAUUCAAUUCCCACGUAGACUCUUAUUUUAUAGGACGAAUGCCAAAUUGCAGCUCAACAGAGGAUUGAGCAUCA	10.3
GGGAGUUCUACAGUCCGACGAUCAAAAUGUUUAUCGGUGGACUGAGCUGGCAGACCUCACCAGAUAGCCUUAGAGACUAUUUUAGCAAAUUUGGAGAAAUUAGAGAAUGUAUGGUCAUGAGAGAUCCCACUACGAAACGCUCCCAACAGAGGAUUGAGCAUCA	10.6
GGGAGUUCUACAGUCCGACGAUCCCUGGAUGGAACGAGGCAGCAUCACAGUAAACCUUUGGGGACCAUGUAGCCAGCUGGCAUCCUAGGGAACUCCUUCCCAUAGCCCGACUGCUGUCACAGCUAAGCUUCUCACAGGACUGUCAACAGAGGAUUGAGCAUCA	0.21
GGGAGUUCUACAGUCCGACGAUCGUUUUUGCUUGUUUUGGUUUUGGUUGUUUGCAGAUUGUUGGCAUAUAUCACCAUUCUUGAUCUUAUUGAGAUGUGUAUUGCUAGCUCCUAUUGGUUUGAUAAUUUUCCUAUAGUUACUGGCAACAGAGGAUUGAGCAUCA	0.48
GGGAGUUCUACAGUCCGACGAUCUGGUUCUCCUCCAACUGAGAAAGCUUACAGUACAAUUUAAAGUGGGUCUCGCCUGCACUUACUAGUGUCUGACGAAACAGUCUUACAUCUGCCUAAGUAAUAGAAGAGCCCUGCAGAAUACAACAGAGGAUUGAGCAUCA	0.185
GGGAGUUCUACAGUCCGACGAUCUUGGAAACCAGUGCUAAGAAUGCAACGAAUGUAGAACAGUCUUUCAUGACGAUGGCAGCUGAGAUUAAAAAGCGAAUGGGUCCCGGAGCAACAGCUGGUGGUGCUGAGAAGUCCAAUGUUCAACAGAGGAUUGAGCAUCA	0.194
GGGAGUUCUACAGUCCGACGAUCGGCUCCCCUUCUACUGAAUUAGUUUCUGGAGGAUCUGAUAAUCAAGUGAUUCACUGGGAAAUAGAGGAUAAUCAGCUUUUAAAAGCAGUGCAUCUUCAAGGCCAUGAAGGACCUGUUUAUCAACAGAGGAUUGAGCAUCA	0.181

Set 3
Target: Histone acetyltransferase KAT6A, both winged helices, GST fusion (KAT6A, Homo sapiens, UniProt Q92794, residues 1-181)
Technique: protein binding microarray
Molecule type: double-stranded DNA, one strand shown
Sample: in vitro
Concentration: not given
Setting: 8-mer, flanks averaged, mean of 2 arrays, mostly near background
Baseline: not given
Reading: higher = stronger binding
Residues (chain): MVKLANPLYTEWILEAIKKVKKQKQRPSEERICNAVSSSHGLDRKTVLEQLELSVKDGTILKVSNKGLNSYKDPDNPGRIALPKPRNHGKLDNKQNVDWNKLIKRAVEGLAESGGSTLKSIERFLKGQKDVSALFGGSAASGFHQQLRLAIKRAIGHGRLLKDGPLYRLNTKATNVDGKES
Strand	E-score
GGGACAAA	-0.044
GGGTCTTA	0.0678
GAATAGTA	-0.158
CTCGGTTA	0.0349
GACCGCAA	0.158
TACTGCGA	-0.0592
AAGCATGC	-0.0617
CAGCCTTC	-0.133
GATATAGA	-0.0206
CATCGCGA	0.261
CATTGAGA	0.0794
CATCCAGC	0.034
GAAGACTC	-0.0953
AACCGGGA	0.15
ATAAAAGA	0.102
AACTCGAT	-0.142
ATGACCGG	0.0553
AGGTACAG	-0.21
AAAGGAAA	-0.108
ACCATTAG	-0.0217
AGATGGCG	0.0601
ACCGGTAA	0.262
CCGGTTTA	0.134
GGTCGATA	-0.0231
CCGGATAC	0.106

Set 4
Target: Interferon regulatory factor 7, full length, phosphomimetic (IRF7, Homo sapiens, UniProt Q92985, residues 1-503, S471D/S472D/S475D/S476D/S477D/S483D/S484D/S487D)
UniProt Q92985, sequence (whole entry, unmodified, looked up): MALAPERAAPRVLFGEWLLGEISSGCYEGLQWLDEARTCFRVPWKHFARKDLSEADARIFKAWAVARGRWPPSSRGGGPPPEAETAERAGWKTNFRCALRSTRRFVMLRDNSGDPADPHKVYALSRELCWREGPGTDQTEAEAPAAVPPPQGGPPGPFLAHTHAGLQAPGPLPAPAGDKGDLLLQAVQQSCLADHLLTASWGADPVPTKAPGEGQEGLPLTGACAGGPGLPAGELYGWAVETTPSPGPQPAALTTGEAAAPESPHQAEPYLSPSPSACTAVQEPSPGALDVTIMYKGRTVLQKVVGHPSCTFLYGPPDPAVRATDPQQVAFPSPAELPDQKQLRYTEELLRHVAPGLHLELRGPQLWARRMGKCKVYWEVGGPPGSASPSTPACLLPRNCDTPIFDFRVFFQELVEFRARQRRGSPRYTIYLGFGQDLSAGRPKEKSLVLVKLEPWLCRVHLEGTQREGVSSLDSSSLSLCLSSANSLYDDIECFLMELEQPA
Technique: protein-binding microarray
Molecule type: double-stranded DNA, one strand shown
Sample: in vitro
Concentration: 2200 nM top
Setting: 60-bp whole probe
Together with: salmon DNA 0.4 mg/ml
Baseline: random background probes
Reading: higher = stronger binding
Constant ends, left off below: GCCTAGCAC … GTCTTGATTCGCTTGACGCTGCTG
Strand	fitted relative affinity [z-score]
TCATGTTTGGTTCTTATACTGTGCTAG	2.22
GGGCATTTGGAAAATGAAAATGTGCTA	-0.757
TCAGTTGTAGGTTTTCTGACTGTGCTA	0.748
TCATAGTTGTGTCTTGCACTGTGCTAG	1.01
GCTCCTCTTTTTTTGGTAATGTGCTAG	1.64
GACGGTGTCGGGTTTCGGGACGTGCTA	0.562
TTCCTTTGCTTTCTCCCAAGGTGCTAG	3.01
TCATTTTTACCTGTGGTACTGTGCTAG	1.83
GACGGTTTCGCTATCGGGACGTGCTAG	5.84
GGCGCTTTTTTTCCGAGTGAGTGCTAG	0.444
TTAGGACTGCTTCTCCATTAGTGCTAG	0.733
TCACTTTCCTTACTTCCCACTGTGCTA	5.26
TTAGATTTCGGGTTTGGATTAGTGCTA	4.27
GACGGTTGCGGGTTTCGGGACGTGCTA	2.09
GACCGTTTCCTTTTCCTGACGTGCTAG	4.4
TTAGGTTTGGGGTTTCGGTTAGTGCTA	3.71
GACGATTTCAGACTGGAGACGTGCTAG	0.339
TCATTTTCATTTTCTGAAACTGTGCTA	6.9
TACGGTCTCGGTCTCGGGACGTGCTAG	0.176

For quick reference, copied from above (set 3):
Strand	E-score
CTCGGTTA	0.0349
CATTGAGA	0.0794
ACCGGTAA	0.262
GAATAGTA	-0.158
TACTGCGA	-0.0592
GGGACAAA	-0.044
CATCCAGC	0.034
GGGTCTTA	0.0678
ACCATTAG	-0.0217
